Results from different studies.
Every numbered part comes from another study and shows a few of its results, in no order. Positions count from the first letter of the parent shown.
Sequence of UniProt P42685 (whole entry, looked up): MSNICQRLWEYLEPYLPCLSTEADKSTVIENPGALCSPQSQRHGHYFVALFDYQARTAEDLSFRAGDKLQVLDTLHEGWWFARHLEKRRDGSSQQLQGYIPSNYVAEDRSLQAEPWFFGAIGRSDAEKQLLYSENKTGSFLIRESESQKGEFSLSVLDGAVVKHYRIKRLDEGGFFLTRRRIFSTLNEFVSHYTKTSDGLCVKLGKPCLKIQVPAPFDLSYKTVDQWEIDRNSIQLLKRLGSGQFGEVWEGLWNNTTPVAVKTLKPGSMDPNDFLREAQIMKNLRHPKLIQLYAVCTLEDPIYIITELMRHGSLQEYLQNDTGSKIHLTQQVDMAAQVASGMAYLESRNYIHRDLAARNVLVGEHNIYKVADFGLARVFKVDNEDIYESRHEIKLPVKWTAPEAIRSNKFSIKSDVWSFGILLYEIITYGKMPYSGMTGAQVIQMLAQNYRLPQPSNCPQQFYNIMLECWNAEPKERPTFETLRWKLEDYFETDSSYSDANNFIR
Sequence of UniProt P43403 (whole entry, looked up): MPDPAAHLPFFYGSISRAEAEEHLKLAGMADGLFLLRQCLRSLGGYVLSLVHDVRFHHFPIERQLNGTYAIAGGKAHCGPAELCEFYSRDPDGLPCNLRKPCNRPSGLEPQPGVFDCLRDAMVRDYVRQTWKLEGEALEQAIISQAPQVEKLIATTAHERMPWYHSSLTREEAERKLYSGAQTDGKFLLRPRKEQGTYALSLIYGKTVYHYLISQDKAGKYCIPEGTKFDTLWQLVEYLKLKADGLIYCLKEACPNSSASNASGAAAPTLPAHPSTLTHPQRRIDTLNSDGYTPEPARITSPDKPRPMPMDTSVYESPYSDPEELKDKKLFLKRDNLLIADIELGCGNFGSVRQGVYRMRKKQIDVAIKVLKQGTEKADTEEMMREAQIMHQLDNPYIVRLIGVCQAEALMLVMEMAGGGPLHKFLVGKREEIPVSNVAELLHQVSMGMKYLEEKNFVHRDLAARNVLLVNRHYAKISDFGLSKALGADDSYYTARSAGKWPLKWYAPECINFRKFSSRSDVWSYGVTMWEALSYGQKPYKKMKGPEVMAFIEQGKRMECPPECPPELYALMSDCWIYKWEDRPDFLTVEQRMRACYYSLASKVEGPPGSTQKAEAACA
Sequence of UniProt O15075 (whole entry, looked up): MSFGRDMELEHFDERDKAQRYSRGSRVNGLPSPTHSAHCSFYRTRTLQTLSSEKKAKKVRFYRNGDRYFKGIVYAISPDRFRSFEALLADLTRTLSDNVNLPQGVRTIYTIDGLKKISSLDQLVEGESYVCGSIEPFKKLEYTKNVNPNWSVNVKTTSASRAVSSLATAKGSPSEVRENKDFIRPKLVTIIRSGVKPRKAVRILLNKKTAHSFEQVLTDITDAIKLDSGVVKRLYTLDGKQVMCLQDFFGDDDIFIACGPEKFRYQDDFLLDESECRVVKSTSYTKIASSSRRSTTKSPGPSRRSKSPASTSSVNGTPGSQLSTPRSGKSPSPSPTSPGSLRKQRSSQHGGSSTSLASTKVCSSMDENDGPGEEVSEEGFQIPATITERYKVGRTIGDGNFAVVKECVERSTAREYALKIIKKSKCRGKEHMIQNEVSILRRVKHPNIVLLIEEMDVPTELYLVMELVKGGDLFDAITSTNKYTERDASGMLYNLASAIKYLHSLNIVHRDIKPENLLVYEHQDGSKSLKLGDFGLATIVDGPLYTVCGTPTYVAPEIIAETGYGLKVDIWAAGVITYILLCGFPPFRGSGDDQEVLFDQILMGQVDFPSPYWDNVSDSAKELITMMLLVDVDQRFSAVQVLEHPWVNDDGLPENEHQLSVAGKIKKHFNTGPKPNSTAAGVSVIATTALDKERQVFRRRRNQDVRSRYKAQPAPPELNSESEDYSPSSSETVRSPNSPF
Sequence of UniProt Q07002 (whole entry, looked up): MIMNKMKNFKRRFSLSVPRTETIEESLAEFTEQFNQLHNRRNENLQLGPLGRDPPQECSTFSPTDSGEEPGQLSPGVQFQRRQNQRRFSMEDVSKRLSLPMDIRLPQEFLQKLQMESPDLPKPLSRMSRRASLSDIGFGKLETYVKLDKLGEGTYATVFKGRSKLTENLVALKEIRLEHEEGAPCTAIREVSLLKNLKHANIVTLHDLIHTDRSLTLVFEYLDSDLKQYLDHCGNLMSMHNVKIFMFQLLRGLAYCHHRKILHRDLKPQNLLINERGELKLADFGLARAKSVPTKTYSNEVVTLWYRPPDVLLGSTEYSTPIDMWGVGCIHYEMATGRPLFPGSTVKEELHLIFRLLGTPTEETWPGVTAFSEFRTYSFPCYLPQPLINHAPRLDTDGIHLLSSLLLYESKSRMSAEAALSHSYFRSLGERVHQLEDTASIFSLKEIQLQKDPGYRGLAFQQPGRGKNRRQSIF
Sequence of UniProt O00444 (whole entry, looked up): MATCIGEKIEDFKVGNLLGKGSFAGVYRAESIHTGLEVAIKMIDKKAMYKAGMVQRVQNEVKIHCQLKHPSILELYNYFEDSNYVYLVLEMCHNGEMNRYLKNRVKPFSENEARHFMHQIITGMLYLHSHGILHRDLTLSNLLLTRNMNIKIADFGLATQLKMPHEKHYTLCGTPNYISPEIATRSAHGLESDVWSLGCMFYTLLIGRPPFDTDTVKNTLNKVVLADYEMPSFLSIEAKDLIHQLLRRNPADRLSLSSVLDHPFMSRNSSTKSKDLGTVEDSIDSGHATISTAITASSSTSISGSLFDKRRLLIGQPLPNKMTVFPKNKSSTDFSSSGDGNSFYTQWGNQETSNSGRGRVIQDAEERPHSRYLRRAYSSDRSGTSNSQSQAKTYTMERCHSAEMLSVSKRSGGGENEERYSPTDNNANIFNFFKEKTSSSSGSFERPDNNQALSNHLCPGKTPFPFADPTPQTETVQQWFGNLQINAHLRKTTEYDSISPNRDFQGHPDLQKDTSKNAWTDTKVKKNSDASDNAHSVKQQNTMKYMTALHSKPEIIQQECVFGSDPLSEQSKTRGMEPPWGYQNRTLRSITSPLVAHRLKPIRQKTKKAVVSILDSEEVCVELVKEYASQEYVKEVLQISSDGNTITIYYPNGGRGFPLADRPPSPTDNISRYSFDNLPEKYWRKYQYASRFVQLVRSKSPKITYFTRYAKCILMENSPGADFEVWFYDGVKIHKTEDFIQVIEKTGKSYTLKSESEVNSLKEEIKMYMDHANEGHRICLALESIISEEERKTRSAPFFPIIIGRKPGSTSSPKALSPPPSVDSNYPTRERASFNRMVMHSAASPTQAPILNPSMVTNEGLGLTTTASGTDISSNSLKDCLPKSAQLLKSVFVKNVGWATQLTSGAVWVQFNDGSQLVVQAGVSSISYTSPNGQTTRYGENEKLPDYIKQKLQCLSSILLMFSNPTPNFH
Sequence of UniProt Q8TBX8 (whole entry, looked up): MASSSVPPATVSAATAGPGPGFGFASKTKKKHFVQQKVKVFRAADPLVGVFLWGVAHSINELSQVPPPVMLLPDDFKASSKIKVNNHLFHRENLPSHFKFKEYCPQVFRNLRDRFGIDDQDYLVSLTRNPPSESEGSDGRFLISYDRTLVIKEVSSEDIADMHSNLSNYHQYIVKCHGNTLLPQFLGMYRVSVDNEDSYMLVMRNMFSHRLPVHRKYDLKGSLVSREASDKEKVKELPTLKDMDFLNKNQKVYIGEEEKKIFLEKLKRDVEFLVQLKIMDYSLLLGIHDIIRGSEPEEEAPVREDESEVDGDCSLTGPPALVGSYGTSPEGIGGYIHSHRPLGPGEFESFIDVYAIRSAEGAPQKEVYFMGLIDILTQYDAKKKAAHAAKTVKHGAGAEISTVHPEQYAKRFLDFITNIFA
Sequence of UniProt O60331 (whole entry, looked up): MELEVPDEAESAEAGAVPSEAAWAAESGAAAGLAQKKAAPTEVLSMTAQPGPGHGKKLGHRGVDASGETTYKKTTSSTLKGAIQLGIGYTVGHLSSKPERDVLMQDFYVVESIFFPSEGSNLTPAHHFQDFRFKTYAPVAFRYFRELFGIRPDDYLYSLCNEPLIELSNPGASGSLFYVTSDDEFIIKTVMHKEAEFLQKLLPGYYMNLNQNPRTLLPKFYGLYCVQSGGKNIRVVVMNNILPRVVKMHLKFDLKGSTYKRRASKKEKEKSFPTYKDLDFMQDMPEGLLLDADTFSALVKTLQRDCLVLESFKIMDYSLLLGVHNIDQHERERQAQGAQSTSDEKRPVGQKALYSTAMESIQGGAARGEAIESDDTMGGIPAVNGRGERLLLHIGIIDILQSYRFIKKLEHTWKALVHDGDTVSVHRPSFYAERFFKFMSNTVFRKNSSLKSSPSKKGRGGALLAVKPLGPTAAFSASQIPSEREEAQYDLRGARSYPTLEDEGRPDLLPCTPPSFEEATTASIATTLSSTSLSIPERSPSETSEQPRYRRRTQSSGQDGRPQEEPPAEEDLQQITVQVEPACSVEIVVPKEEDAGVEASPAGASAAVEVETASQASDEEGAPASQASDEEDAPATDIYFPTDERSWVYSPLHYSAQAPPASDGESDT

Study 1
Structure (SMILES): CN([C@@H]1CCc2c(CC(=O)O)c3ccccc3n2C1)S(=O)(=O)c1ccc(F)cc1
Effect on: cell-free assay
Technique: competition with immobilised ligand
Tested at: 1 µM
For Protein kinase C theta type (PRKCQ, Homo sapiens, UniProt Q04759): remaining binding read 83%.
STE20-like serine/threonine-protein kinase (SLK, Homo sapiens, UniProt Q9H2G2) — remaining binding: 100%.
The remaining binding was 100% (Tyrosine-protein kinase ZAP-70 (ZAP70, Homo sapiens, UniProt P43403)).
For Cyclin-dependent kinase 18 (CDK18, Homo sapiens, UniProt Q07002): remaining binding read 100%.
The remaining binding was 82% (Serine/threonine-protein kinase DCLK1 (DCLK1, Homo sapiens, UniProt O15075)).
It gave 100% for remaining binding (Tyrosine-protein kinase FRK (FRK, Homo sapiens, UniProt P42685)).
It gave 100% for remaining binding (Phosphatidylinositol 5-phosphate 4-kinase type-2 gamma (PIP4K2C, Homo sapiens, UniProt Q8TBX8)).
Phosphatidylinositol 4-phosphate 5-kinase type-1 gamma (PIP5K1C, Homo sapiens, UniProt O60331) — remaining binding: 100%.
The remaining binding was 100% (Serine/threonine-protein kinase PLK4 (PLK4, Homo sapiens, UniProt O00444)).

Study 2
Target: CCNB2, cyclin fold, Cln2 fusion (human)
Technique: yeast growth competition, sequencing
Matrix: yeast
Setting: strong parent motif
Relative to: not given
Direction: higher = stronger binding
Starting sequence: MICAL3 docking peptide (human); LQLRRQLSFSEDS
`R5E` — result for “normalised enrichment score”: -0.139.
`D12Y` — result for “normalised enrichment score”: 2.26.
For `S10P`, “normalised enrichment score” read 0.93.
`L3Y` — result for “normalised enrichment score”: 0.485.
`D12S` — result for “normalised enrichment score”: 2.67.
`D12R`: “normalised enrichment score” 2.09.
For `Q2A`, “normalised enrichment score” read 3.04.
`R5V`: “normalised enrichment score” 0.659.

Study 3
Target: FOSB, bZIP domain (human)
Technique: DHFR protein complementation
Matrix: yeast
Setting: single substitutions, most at no-binding floor
Relative to: wild-type JUN-FOS pair
Direction: higher = stronger binding
Starting sequence: JUN, bZIP domain (human); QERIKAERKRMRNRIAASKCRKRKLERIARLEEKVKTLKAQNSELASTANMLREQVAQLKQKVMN; partner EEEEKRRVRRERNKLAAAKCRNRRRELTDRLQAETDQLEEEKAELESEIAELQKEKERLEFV
With `S47K` the binding fitness was 0.114 natural log.
`R53V` has a binding fitness of -0.828 natural log.
`A29I` gave a binding fitness of -0.187 natural log.
For `N42S`, the binding fitness was -0.767 natural log.
`K39T` has a binding fitness of -0.294 natural log.
For `R30W`, the binding fitness was -0.0166 natural log.
`L52I` gave a binding fitness of -0.473 natural log.
For `E33G`, the binding fitness was -0.305 natural log.

Study 4
Target: Activin receptor type-1B (ACVR1B, Homo sapiens, UniProt P36896)
Effect on: enzyme activity
Mode: inhibitor
Tested at: 0.5 µM
Relative to: control
Residues (P36896 1-505): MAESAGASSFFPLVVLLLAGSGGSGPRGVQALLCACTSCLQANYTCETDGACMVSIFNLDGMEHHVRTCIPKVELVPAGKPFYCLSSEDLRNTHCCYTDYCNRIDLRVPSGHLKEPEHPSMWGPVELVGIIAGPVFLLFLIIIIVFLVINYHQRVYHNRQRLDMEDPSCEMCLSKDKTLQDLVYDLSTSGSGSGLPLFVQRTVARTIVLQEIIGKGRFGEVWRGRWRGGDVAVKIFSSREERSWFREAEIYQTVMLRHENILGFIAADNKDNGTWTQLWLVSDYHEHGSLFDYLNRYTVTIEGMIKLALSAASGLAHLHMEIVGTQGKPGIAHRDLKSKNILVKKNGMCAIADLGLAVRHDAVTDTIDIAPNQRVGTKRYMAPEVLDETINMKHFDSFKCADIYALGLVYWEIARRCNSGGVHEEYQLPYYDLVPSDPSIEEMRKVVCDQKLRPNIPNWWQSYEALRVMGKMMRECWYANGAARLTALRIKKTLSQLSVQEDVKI
The remaining activity of `Cc1cccc(-c2[nH]c(C(C)(C)C)nc2-c2ccc3c(c2)OCO3)n1` is reported as 31%.
For `O=C(CCCc1ccc(-c2ccccc2F)cc1)Nc1ccc(O)cc1`, the remaining activity was 95.9%.
`Oc1ccc(-c2nc(-c3ccncc3)c(-c3ccc(F)cc3)[nH]2)cc1` gave a remaining activity of 136%.
For `COc1ccc(OC)c2c(=S)c3ccccc3[nH]c12`, the remaining activity was 108%.
With `OCC(O)CCON=C1C(c2c(O)[nH]c3ccccc23)=Nc2ccccc21` (stereo not drawn) the remaining activity was 110%.
`CNC(=O)c1cc(Oc2ccc(NC(=O)Nc3ccc(Cl)c(C(F)(F)F)c3)cc2)ccn1` gave a remaining activity of 102%.
`O=C1NC(=O)C(c2cn(CCCO)c3ncccc23)=C1c1cnccn1` gave a remaining activity of 100%.
`COc1cc2ncnc(Nc3ccc(F)c(Cl)c3)c2cc1OCCCN1CCOCC1` has a remaining activity of 99.6%.
The remaining activity of `Nc1ncnc2n[nH]c(Nc3ccc(F)cc3)c12` is reported as 104%.
`CN(C)c1ccc(C=C2C(=O)Nc3ccccc32)cc1` has a remaining activity of 93.4%.
For `Nc1[nH]nc2nc3ccccc3nc12`, the remaining activity was 99.9%.
For `NCCNc1ncc(C(N)=O)c(Nc2cccc(C(F)(F)F)c2)n1`, the remaining activity was 98.2%.
`Nc1ccc2ncnc(NCCc3ccc(Oc4ccccc4)cc3)c2c1` gave a remaining activity of 101%.
With `Cc1ccc(NC(=O)c2ccc(CN3CCN(C)CC3)cc2)cc1Nc1nc(-c2cccnc2)cs1` the remaining activity was 99.8%.

Repeated from above (study 4):
With `OCC(O)CCON=C1C(c2c(O)[nH]c3ccccc23)=Nc2ccccc21` (stereo not drawn) the remaining activity was 110%.
`COc1cc2ncnc(Nc3ccc(F)c(Cl)c3)c2cc1OCCCN1CCOCC1` has a remaining activity of 99.6%.
For `O=C(CCCc1ccc(-c2ccccc2F)cc1)Nc1ccc(O)cc1`, the remaining activity was 95.9%.
